Measurements gathered from unrelated publications.
Target: NUAK family SNF1-like kinase 1 (NUAK1, Homo sapiens, UniProt O60285)

| Structure (SMILES) | assay | test system | setting | scale | endpoint | value |
| --- | --- | --- | --- | --- | --- | --- |
| CC(C)=CC1OC(C)(C)C2C=C3C(=O)C(Cl)=CC(O)C3C3C(O)C4OC4C(=O)C132 (stereo not shown) | cell-free assay, competition with immobilised ligand | – | 10 µM | – | remaining binding | 96% |
| COc1c(Cl)cccc1Nc1c(-c2ccncc2C#C[C@@]2(C)CCCN2C(=O)/C=C/CN(C)C)[nH]c2c1C(=O)NCC2 | cell-free assay, competition with immobilised ligand | – | 3 µM | – | remaining binding | 100% |
| Nc1ncc2c(n1)-c1c([nH]c3ccc(C4=CCOCC4)cc13)CCC2 | binding, competition with immobilised ligand | – | 1 µM | – | remaining binding | 100% |
| COc1cc(Nc2nccc(-c3cnn4nc(OC)ccc34)n2)cc(C(F)(F)F)c1 | binding, competition with immobilised ligand | – | 1 µM | – | remaining binding | 100% |
| CNC1C[S+]2CC[S+]3CC[S+](C1)[Ru-4]321([N]=C=S)[n]2c3ccc(OC)cc3c3c4c(c5cc(F)c[n+]1c5c32)C(=O)NC4=O (stereo not shown) | KinomeScan | – | 0.1 µM | baseline: untreated | remaining binding | 85% |
| Cc1cccc(O[C@H]2CCC[C@@H](C(C)CNCc3ccncc3)C2)c1 (relative stereo) | kinase activity, kinome panel screening | – | 1 µM | – | inhibition | -4% |
| C=CC(=O)Nc1cccc(-c2cnc3[nH]cc(C(=O)NC(C)(C)C)c3n2)c1 | kinase activity | – | 0.1 µM | – | inhibition | 92% |
| NC(=O)C[C@H]1CCc2sc3ncnc(O[C@H]4CC[C@H](N5CCOCC5)CC4)c3c21 | enzyme activity, inhibitor | – | 10 µM | – | inhibition | 7% |
| CN1CC[C@@H](COc2cnc(C#N)cc2-c2ccn3nc(NC(=O)C4CC4)cc3c2)C1 | enzyme activity, inhibitor | – | 1 µM | – | inhibition | 17% |
| CCN1CCN(Cc2ccc(C(=O)Nc3ccc(C)c(NCc4cnc5[nH]ccc5c4OC)c3)cc2C(F)(F)F)CC1 | binding, competition with immobilised ligand | – | 1 µM | – | remaining binding | 100% |
| C=CC(=O)N1CCc2ccc(-n3c(=O)ccc4cnc5ccc(-c6cnn(C)c6)cc5c43)cc21 | KINOMEscan | – | 1 µM | baseline: DMSO control | remaining binding | 100% |
| C=CC(=O)Nc1cc(-c2nn(C3CCN(CCNC(=O)[C@H](C)CCC45CC6CC(CC(C6)C4)C5)CC3)c3ncnc(N)c23)ccc1Oc1ccccc1 | inhibitor, KiNativ profiling | biochemical | 2 µM | – | inhibition | 8.2% |
| C=CC(=O)N1Cc2nc(-c3cc(-c4cc(Cl)cnc4Cl)c(F)cc3F)n(-c3ccncn3)c2C1 | cell-free assay, inhibitor | – | 1 µM | – | inhibition | 1.8% |
| CNC(=O)C1CCN(c2cc(C)c(F)cc2NC(=O)c2ccc(-c3cc(O)ccc3C)c(C)c2)CC1 | binding, competition with immobilised ligand | – | 1 µM | – | remaining binding | 100% |
| Cc1c[nH]c2nccc(-c3ccc(C(=O)N[C@@H]4c5c(F)cc(C(F)F)cc5C[C@@H]4O)cn3)c12 | binding, competition with immobilised ligand | – | 3 µM | – | remaining binding | 42% |
| Cc1cnc2nc1Nc1cccc(c1)COC/C=C/COCc1cc(ccc1OCCN1CCOCC1)N2 | – | – | concentration not given, gene name ARK5 | – | percent of control | 61% |

Excerpt of the above:
| Structure (SMILES) | assay | test system | setting | scale | endpoint | value |
| --- | --- | --- | --- | --- | --- | --- |
| CN1CC[C@@H](COc2cnc(C#N)cc2-c2ccn3nc(NC(=O)C4CC4)cc3c2)C1 | enzyme activity, inhibitor | – | 1 µM | – | inhibition | 17% |
